Published values pooled from the literature.
Lines come from different studies, so protocols differ. ± gives the spread as reported.

CC(C)OC(=O)C(n1cccn1)n1cccn1.F[P-](F)(F)(F)(F)F.[Cu+].c1ccc(P(c2ccccc2)c2ccccc2)cc1  IC50 (PSN1; cell growth or viability, MTT; 72 h): 17300 nM
CCC(C)C1OC(=O)C(NC(=O)c2cccc(NC=O)c2O)C(C)OC(=O)C(C(C)CC)OC(=O)C(C)(C)C(=O)C(Cc2ccccc2)OC1=O (stereo not shown)  IC50 (PC-9/GR gefitinib-resistant; cell viability, CCK-8; 72 h): 0.5 nM
COC(=O)C[C@](O)(CCCC(C)(C)OC(C)=O)C(=O)O[C@@H]1C(OC)=C[C@]23CCCN2CCc2cc4c(cc2[C@H]13)OCO4  IC50 (pancreatic cancer cell lines; cell viability, MTT; 72 h, average over cell lines): 51.4 nM
CNC(=O)c1cc(Oc2ccc(NC(=O)CCC(=O)OC3OC4OC5(C)CCC6C(C)CCC(C3C)C46OO5)cc2)ccn1 (stereo not shown)  IC50 (Hep3B; cell growth or viability, MTT; 72 h): 24600 nM
CNC(=O)C(NC(=O)c1ccccc1-c1ccc(C(F)(F)F)cc1)c1cccc(C(F)(F)F)c1 (stereo not shown)  IC50 (KHYG-1 and MICA-expressing Ba/F3; NKG2D-mediated cell killing; 6 h): > 20000 nM
CC[C@H](C)[C@H](NC(=O)[C@H](C)NC(=O)[C@@H](N)Cc1c[nH]cn1)C(=O)N[C@@H](Cc1ccc(O)cc1)C(=O)N1CCC[C@H]1C(=O)N[C@@H](CCCNC(=N)N)C(=O)N[C@@H](Cc1c[nH]cn1)C(=O)N[C@@H](CO)C(=O)N[C@@H](Cc1c[nH]c2ccccc12)C(=O)N[C@H](C(=O)N[C@@H](Cc1c[nH]c2ccccc12)C(=O)N[C@@H](CCC(=O)O)C(=O)N[C@@H](CCCCN)C(=O)N[C@@H](CCCCN)C(=O)N[C@@H](CC(C)C)C(=O)N[C@@H](CCC(=O)O)C(=O)N[C@H](C(=O)N[C@@H](C)C(=O)N[C@H](C(=O)N[C@@H](CC(N)=O)C(=O)N[C@@H](CC(C)C)C(=O)N[C@@H](C)C(=O)N[C@@H](Cc1c[nH]c2ccccc12)C(=O)N[C@H](C(=O)N[C@@H](C)C(=O)NCC(=O)N[C@@H](CC(N)=O)C(=O)N[C@@H](CO)C(=O)N[C@@H](CC(N)=O)C(=O)N[C@@H](CCCCN)C(=O)N[C@@H](Cc1c[nH]c2ccccc12)C(=O)N[C@H](C(=O)N[C@@H](Cc1c[nH]c2ccccc12)C(=O)N[C@@H](CCCCN)C(=O)O)[C@@H](C)O)[C@@H](C)O)C(C)C)[C@@H](C)O)[C@@H](C)O  IC50 (CLL patient PBMCs; cell death, PI staining flow cytometry; 90 min, room temperature, serum-free medium): 1700 nM
Cc1nn(-c2ccccc2)c(O)c1C(c1ccccc1[N+](=O)[O-])c1c(C)nn(-c2ccccc2)c1O  IC50 (Ishikawa; cell growth or viability, MTT; 48 h): > 40000 nM
O=C(Cc1ccc2ccccc2c1)N[C@H](Cc1ccc(O)cc1)C(=O)N[C@H](Cc1ccccc1)C(=O)N[C@H](Cc1ccccc1)C(=O)N[C@H](Cc1ccc(O)cc1)C(=O)O  IC50 (SAOS-2; cell growth or viability, MTT): > 500 µg/mL
COc1cc(-c2oc3cc(O)c(OC)c(O)c3c(=O)c2OC)ccc1O  IC50 (human Neutrophil; elastase release, inhibitor): > 10000 nM
Cc1cc(C)c(-n2ccn(-c3c(C)cc(C)cc3C)c2=[Se])c(C)c1.[Cl][Au]  IC50 (A2780 ADR; MTT; 72 h): 300 ± 30 nM

Excerpt of the above:
Cc1cc(C)c(-n2ccn(-c3c(C)cc(C)cc3C)c2=[Se])c(C)c1.[Cl][Au]  IC50 (A2780 ADR; MTT; 72 h): 300 ± 30 nM
